Results collected from several papers.
A part holds a random share of what one study measured. Substitutions count along the parent as printed.

Series 1 — technique: RNA Bind-n-Seq; form: RNA; medium: in vitro; tested at: 20 nM; setting: 6-mer, flanks averaged, single round; with: 150 mM LiCl; relative to: input library; reading: higher = stronger binding
Target: TAR DNA-binding protein 43, full length, His tag (TARDBP, Homo sapiens, UniProt Q13148, residues 1-414)
Strand | 6-mer enrichment (R)
UUCAUC | 0.855
GGUCUA | 0.875
GUGGGA | 1.28
UCUCUG | 0.894
AGUCGA | 0.875
CUGACU | 0.847
UAAGCC | 0.896
CGAUGU | 0.981

Series 2 — Change: S80N; technique: DHFR PCA, deep sequencing; medium: yeast; relative to: wild-type fitted maximum; reading: higher = stronger binding
Target: ABI1, truncated, D143A, DHFR fusion (Arabidopsis thaliana)
Setting: methotrexate growth selection, single substitutions
Parent: PYL1, truncated, DHFR fusion (Arabidopsis thaliana); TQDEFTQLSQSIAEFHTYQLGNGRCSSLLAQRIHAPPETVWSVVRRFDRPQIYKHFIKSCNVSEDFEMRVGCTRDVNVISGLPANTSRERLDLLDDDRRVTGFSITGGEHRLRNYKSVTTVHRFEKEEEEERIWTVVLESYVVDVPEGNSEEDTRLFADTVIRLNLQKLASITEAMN
with | relative binding score [%]
(+)-ABA 2500 µM | 80.2
(+)-ABA 0.032 µM | 35
(+)-ABA 710 µM | 78.3
(+)-ABA 0.11 µM | 37.1
(+)-ABA 200 µM | 66.4
(+)-ABA 0.39 µM | 40.7

Series 3 — target: CEP164, C-terminal peptide (human); technique: DHFR complementation, deep sequencing; medium: yeast; relative to: wild type; reading: higher = weaker binding
Setting: single substitutions, model-inferred values
Parent: PDZK1, PDZ domain 2 (human); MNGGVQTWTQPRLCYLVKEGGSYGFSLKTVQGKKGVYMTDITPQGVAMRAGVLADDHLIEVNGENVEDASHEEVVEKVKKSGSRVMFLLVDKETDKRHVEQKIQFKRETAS; partner HNRVKVYRF
Change | binding free energy change
E60S | 0.192 kcal/mol
R97I | -0.213 kcal/mol
G51V | 1.16 kcal/mol
Q31W | 0.0312 kcal/mol
R97T | -0.081 kcal/mol
V90Y | -0.00352 kcal/mol
G35C | 1.04 kcal/mol
K79T | 0.261 kcal/mol

Further values, each from its own experiment
Parent: PafA, mature enzyme, eGFP fusion (Elizabethkingia meningoseptica, UniProt Q9KJX5); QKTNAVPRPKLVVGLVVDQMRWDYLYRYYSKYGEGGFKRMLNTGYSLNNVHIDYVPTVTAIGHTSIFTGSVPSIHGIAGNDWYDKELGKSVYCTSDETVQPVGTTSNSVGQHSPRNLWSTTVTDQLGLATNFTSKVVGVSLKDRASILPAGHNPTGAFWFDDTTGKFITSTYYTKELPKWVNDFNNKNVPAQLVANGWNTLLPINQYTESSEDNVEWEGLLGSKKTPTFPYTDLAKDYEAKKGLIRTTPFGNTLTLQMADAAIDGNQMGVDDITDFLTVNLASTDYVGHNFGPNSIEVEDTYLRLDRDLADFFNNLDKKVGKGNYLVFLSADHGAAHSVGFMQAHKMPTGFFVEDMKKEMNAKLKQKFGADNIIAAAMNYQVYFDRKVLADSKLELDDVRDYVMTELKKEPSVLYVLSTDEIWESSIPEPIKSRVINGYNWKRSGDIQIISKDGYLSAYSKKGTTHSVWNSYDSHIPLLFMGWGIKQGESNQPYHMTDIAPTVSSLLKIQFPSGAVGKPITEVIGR
Change | target | test | system | conditions | how to read | endpoint | result
M496V | tungstate, free oxyanion | microfluidic competitive inhibition | in vitro, cell-free expressed | not given, derived from inhibition constants, unchanged parent 2230 nM | lower = stronger binding | oxyanion analog dissociation constant | 2.72 µM

Excerpt of the above (series 3):
Change | binding free energy change
G51V | 1.16 kcal/mol
R97T | -0.081 kcal/mol
K79T | 0.261 kcal/mol
